Measurements collected from several papers.
Parts stem from different laboratories: compare values within a part only. Substitutions count along the parent as printed.

Set 1
Target: RING finger protein unkempt homolog, zinc fingers 1-6, GST-SBP tag (UNK, Homo sapiens, UniProt Q9C0B0, residues 30-357)
Method: RNA Bind-n-Seq
Molecule type: RNA
Matrix: in vitro
Tested at: not given
Notes: RNA with constant flanks, human-mouse chimeric sites, ends assumed
Reference: input RNA pool
Reading: higher = stronger binding
Endpoint: bound/input enrichment
Shared flanks, not repeated: GGGAGUUCUACAGUCCGACGAUC … CAACAGAGGAUUGAGCAUCA
Target sequence (chain): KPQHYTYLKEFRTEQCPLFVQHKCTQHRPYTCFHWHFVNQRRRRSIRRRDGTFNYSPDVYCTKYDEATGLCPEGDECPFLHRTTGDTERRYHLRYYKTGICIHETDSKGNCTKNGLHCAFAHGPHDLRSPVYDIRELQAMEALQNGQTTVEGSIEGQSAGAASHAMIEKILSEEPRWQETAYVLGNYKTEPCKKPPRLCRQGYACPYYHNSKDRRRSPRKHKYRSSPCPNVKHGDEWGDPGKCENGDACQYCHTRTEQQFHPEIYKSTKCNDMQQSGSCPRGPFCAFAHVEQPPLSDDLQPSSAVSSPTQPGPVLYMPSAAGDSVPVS
GUAUUUGUGCGCUCCCCACUCGUGUUUUUAAGUGUAUUUUUAUAAGACAUGUGUAUUUACAAUUGAGCUUUUGUUACAUAAUGCUGAAAUGCUACUGGAGAUUAUGAAAAAUGUUUCAAU: 0.19 ratio
UGACAAGGGCACUGCAGGGCCAUGCCUUUCCUUGACAUACAGAAAAAGCUGGGCAUCAGCCUGGACCGGCACUUUAUAAUCCAGAGUGCAGAACAGCCCUAUAAGAACGCCGCUCGGUGC: 0.0715 ratio
GGGACUGAUUCAUCCCAAGGACAGGCCACCCCAUUUGAUGCCUGGACUGAUGACAGUAUGGAAGGGCCUAGUCAAAAUGUUGAAGCUGAGUCAAUUCAAGAUAAUGCGCAUAUGGCAGAG: 0.318 ratio
GCUCCUCUUCCGCACUCAGCCUGGGGACACUGGGCUGGGACCAGAAUCCAGCUUUCUUUUAAAACUCUCAGUGUAACUUCUUUUUCUGACAUUUCAUUUUUUUUAAAUAGUGUAUUUUUU: 4.24 ratio
ACUCUUGACUCUUUCCAUCCUCUUCCUUUCCCUCUUGAUAUUCAAGGCCAUGAAUCCCAAAAUAACAAUCUAUCUUACUAGCACCCAAACAGAGGUGGGUGCCAUCCACCCCAGUGUCUC: 0.816 ratio
AAGGUGAUGACUAUGUUUGUCCAACGACAGGUAUUUUCGGAGAGCAAAGAUGAGAUUGCGUUAGUCCUCUAUGGCACAGAUGGCACUGAUAAUGCCCUUGCUGGCAAGGAUCAGUAUCAG: 0.161 ratio
GCUCUUGGCAAUGUAAUCAGCGCCUUGGGGGACAAGAGCAAGAGAGCCACACAUGUCCCUUACAGAGACUCUAAGCUGACAAGACUCUUGCAGGAUUCCCUUGGGGGUAACAGCCAAACC: 0.0922 ratio
UAAAUUAGGGCUGCCGUUUUCUGUUUCUCCCUGGGCUGCAGACAGCUAGAAGAUUUUAUCUAGCUUAUACAAGGCUGCUGGUGUUCCCUCUUUUUUUCCACGAGGGUGUUUUUGGCUGCA: 0.783 ratio
AAAGGCAAAAAGGGCAGCUGUGUCAUUUCAUAAGUAACUCUGGGGGAGGGAAAUUCUGUUCUUUUGUUUAAUUUUCCCCCAAAUGAAGCCAAAGUGUGUGUUGAAGAAGGAAGAAUGAAU: 0.161 ratio
CCCUCCCCGGGCCACCCACCCCUCCCGCUCCCAGCGGGAGAUCCAGGUUUCUUCUUAUUUCAUAGCCAAUAAGAAAAAUGUUCUACGCACAUUUUGUCCUCAGUAAACGAGGGCCUCUGG: 0.481 ratio
CAGUCCCCGUGUCCCAGUGCAGGACGAUGUGAACAAAAACUCAAAGCGGCCCUUUCUUUGUAGUUCUUGAUUCUCGAGUGCCAUUAUUAUUGUUUGUCUUUUUUUUUUUUUUUUUAAAGA: 1.05 ratio

Set 2
Target: CCND3, cyclin fold, Cln2 fusion (human)
Method: yeast growth competition, sequencing
Matrix: yeast
Notes: weak parent motif
Reference: not given
Reading: higher = stronger binding
Endpoint: normalised enrichment score
Parent: PKN2 docking peptide (human); VSAVQKLDFSDTM; partner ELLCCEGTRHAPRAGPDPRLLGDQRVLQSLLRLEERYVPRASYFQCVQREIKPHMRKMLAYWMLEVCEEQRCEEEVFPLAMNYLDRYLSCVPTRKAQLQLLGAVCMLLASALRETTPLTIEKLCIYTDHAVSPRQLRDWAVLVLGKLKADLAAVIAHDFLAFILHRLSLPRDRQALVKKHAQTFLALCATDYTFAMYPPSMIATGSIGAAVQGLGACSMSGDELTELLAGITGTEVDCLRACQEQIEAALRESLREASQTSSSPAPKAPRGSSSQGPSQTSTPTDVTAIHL
VSAVQKVDFSDTM [L7V]: 0.0528
VSTVQKLDFSDTM [A3T]: 0.0873
VSAVQFLDFSDTM [K6F]: 0.122
YSAVQKLDFSDTM [V1Y]: 0.132
VSAVQKLDDSDTM [F9D]: 0.11
VSAVQKLDFDDTM [S10D]: 0.127
VSAVQKLDWSDTM [F9W]: 0.0882
VSAVQQLDFSDTM [K6Q]: 0.145
VSAVQKLDFCDTM [S10C]: 0.106
MSAVQKLDFSDTM [V1M]: 0.113
VTAVQKLDFSDTM [S2T]: 0.172
VSAVQKLDFHDTM [S10H]: 0.0917
VSAVQDLDFSDTM [K6D]: 0.113

Set 3
Target: ABI1, truncated, D143A, DHFR fusion (Arabidopsis thaliana)
Method: DHFR PCA, deep sequencing
Matrix: yeast
Notes: methotrexate growth selection, single substitutions
Added: (+)-ABA 0.032 µM
Reference: wild-type fitted maximum
Reading: higher = stronger binding
Endpoint: relative binding score
Parent: PYL1, truncated, DHFR fusion (Arabidopsis thaliana); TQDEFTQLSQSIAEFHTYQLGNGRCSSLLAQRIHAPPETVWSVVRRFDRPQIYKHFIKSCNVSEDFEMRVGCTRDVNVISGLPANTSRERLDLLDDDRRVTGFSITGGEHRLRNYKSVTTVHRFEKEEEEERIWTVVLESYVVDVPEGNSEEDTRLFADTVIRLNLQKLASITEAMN; partner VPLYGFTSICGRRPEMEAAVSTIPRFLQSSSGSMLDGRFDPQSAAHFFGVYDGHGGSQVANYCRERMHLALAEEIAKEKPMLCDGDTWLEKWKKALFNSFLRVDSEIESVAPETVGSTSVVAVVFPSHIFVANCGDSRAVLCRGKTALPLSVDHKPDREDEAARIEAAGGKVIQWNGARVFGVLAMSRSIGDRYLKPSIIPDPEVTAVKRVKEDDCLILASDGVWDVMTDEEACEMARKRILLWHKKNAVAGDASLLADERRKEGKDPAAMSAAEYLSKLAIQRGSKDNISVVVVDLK
R113M: 25.3%
R99M: 92.8%
R155V: 4.44%
K58E: 12%
T39D: 5.5%
R98E: 1.43%
I33P: 5.87%
S26I: -9.47%
Y53R: -0.188%
E127D: 38.4%
L166V: 5.56%
S171M: 31.1%
R98H: 5.07%
G108E: 0.196%
P50M: 2.74%

Set 4
Target: Centromere-binding protein 1, full length, N-terminal tag (CBF1, Saccharomyces cerevisiae, UniProt P17106, residues 1-351)
Sequence of UniProt P17106 (whole entry, looked up): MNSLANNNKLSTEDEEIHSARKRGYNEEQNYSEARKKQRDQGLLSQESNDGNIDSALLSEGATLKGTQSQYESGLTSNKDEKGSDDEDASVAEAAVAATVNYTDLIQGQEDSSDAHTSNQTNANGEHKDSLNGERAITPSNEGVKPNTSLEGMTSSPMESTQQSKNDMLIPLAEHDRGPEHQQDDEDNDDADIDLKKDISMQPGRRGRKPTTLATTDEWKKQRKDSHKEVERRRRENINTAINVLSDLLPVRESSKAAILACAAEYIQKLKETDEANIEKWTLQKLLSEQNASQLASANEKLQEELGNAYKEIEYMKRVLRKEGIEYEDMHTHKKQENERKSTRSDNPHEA
Method: protein-binding microarray
Molecule type: double-stranded DNA, one strand shown
Matrix: in vitro
Tested at: 0.8 µM
Notes: whole 60-bp probe, no competitor
Reading: higher = stronger binding
Endpoint: fluorescence intensity
Shared flanks, not repeated: … GTCTTGATTCGCTTGACGCTGCTG
GAAGTTAGATCGATTCCCGTGTCTGACAGTGTTTAG: 546 a.u.
GAAAAACTCAAAAACCACATGCTTCTCTTGAGTTAG: 619 a.u.
CTAGTAATGTTACCTCATCTGATATACAATAAATTC: 507 a.u.
GAAATCTTCAGGTGTGACGTTGTGTTGTGTCAATAG: 631 a.u.
CTACCCAATAAACGTGGTACTTGTCGAGTAGTCTTC: 552 a.u.
CCTAACTACTATACACGCCTGGTATAGCTTCGTACA: 516 a.u.
CTACTGGTTTCCTGATACATCATGCACGCCCGTTTC: 526 a.u.
CTAAAATAGACAATCAACGTGATGGGGTTTAAATTC: 1000 a.u.
CTACTAGCATTTTATCACATGAGGTGTAAGAAGTTC: 1050 a.u.
GAACCTTTCTCTCACGTGTAAATATTTGTGTGTTAG: 3370 a.u.
TGTACGAAGCTATGTGATCTCGTTATAGTAGTTAGG: 533 a.u.
GAACTAACAACTGAGCACGTAACCAATGGAAAATAG: 586 a.u.
GAATAACAACCGTGGCGCGTGTCAAGGACTTCTTAG: 616 a.u.
CTATCATATTCGTTAATCGTGATGAGAATACTATTC: 647 a.u.
CTAAGTGTTTCAACAAACGTGATGTTGTATATGTTC: 1140 a.u.
GAATCTGCATAATGTCACCTTTTCTTTTTTTTTTAG: 557 a.u.
GAATCATCTACCATCCACATGCTTGCTTTACTCTAG: 578 a.u.
GAACTTCTTGCTCATCACGATAATTATACTATTTAG: 551 a.u.
GAAAGCACGTGACCCACGCTTGGCCCGCTATGATAG: 24100 a.u.
CTACCGTGGAAAGAGCACGTGCCTCGCTGGATCTTC: 13400 a.u.

Set 5
Target: Ras GTPase-activating protein-binding protein 1, full length (G3BP1, Homo sapiens, UniProt Q13283)
Sequence of UniProt Q13283 (whole entry, looked up): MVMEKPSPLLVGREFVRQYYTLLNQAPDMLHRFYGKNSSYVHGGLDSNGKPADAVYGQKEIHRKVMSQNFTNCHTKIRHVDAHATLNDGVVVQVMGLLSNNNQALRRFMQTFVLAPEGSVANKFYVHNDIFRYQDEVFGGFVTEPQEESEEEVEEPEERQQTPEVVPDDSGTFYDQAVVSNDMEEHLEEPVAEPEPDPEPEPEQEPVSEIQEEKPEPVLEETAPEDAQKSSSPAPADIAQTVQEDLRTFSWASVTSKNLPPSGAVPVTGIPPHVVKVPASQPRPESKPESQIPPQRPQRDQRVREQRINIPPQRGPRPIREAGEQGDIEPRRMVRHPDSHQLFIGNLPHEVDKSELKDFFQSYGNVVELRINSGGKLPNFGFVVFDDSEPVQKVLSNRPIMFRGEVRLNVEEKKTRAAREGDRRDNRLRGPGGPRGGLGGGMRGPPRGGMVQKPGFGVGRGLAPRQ
Method: RNA Bind-n-Seq
Molecule type: RNA
Matrix: in vitro
Tested at: 200 nM
Notes: whole 134-nt RNA, ends assumed
Added: 150 mM LiCl
Reference: input library
Reading: higher = stronger binding
Endpoint: log2 enrichment
Each molecule: 7-deaza-guanosine replaces G
Shared flanks, not repeated: GGGAGUUCUACAGUCCGACGAUC … UGGAAUUCUCGGGUGUCAAGG
AAGUCCUGUGCUACACAUCGUAUGUACCGAAUCGGGCCCCGGGCCCCGGCCCCGGGAAAGUAUUAUGUUACGCCGUUCGGAUCUGCACUU: -1.13
GCAGGCAGUAAAAACAAAUGGAAAUGCUUCGGAUAGUGGCAGGGGUGGGGGUUGCUAAGGAAAGGGUGGGAUGGGAGUGGGUAAAGAGUU: -0.0777
UGGGAGGUGGAUUUUGUUUAUUUUUUUAGCUCAUUUCCAGGGGUGGGAAUUUUUUUUUAAGAUGUGUCAUGAAUAAAGUUGUUUUUGAAA: -0.0251
CUCAAGUCCUGUGCUACACAUCGUAUGUACCGAAUCGGCCGGCCGGGCCGGGGAAAGUAUUAUGUUACGCCGUUCGGAUCUGCACUUCCA: 0.577
GCAGGAAGUAAAAACAACUGGAAAUGCUUCGGAUAGUGGCAGGGGUGGGGGUUGCUAAGGAAAGGGUGGGAUGGGAGUGGGUAAAGAGUU: -0.188
UCCUUUCUGUCAUUUUACACCCACAGUUGAAGAUUCCUGUCUCUGGAUCCAAAUCAGAGGGCCUUCUCUACGUCCACUCAUCCAGAGGUG: 1.48
UGGGAGGUGGAUUUUGUUUAUUUUUUUAGCUCAUUUCCAGGGAUGGGAAUUUUUUUUUAAUAUGUGUCAUGAAUAAAGUUGUUUUUGAAA: -0.348
CAAGUCCUGUGCUACACAUCGUAUGUACCGAAUCAAACCCAAACCCAAAUUUAAAAAAGUAUUAUGUUACGCCGUUCGGAUCUGCACUUC: 1.07
UUACAUUACCUGGUGAAAUAGACAUUGACAGUAUCUCCUAUGAAGAGCUUUCACCACCUGAUGAAGAGCCUGCCAAGAAUAAAAAGGAAA: -1.88
UGCCUUGCAGAUACGUGGCUUUCCUGAAGCUGUUCCUGGAGACGGCGGAGAAGCACUUCAUGGUGGGCCACCGUGUCCACUACUAUGUCU: 0.0101
CAAGUCCUGUGCUACACAUCGUAUGUACCGAAUCGGUUUGGGUUUGGGGUUUGGGAAAGUAUUAUGUUACGCCGUUCGGAUCUGCACUUC: -1.18

Set 6
Target: Histone acetyltransferase KAT6A, winged helix 2, GST fusion (KAT6A, Homo sapiens, UniProt Q92794, residues 85-181)
Method: protein binding microarray
Molecule type: double-stranded DNA, one strand shown
Matrix: in vitro
Tested at: not given
Notes: 8-mer, flanks averaged, mean of 2 arrays, mostly near background
Reference: not given
Reading: higher = stronger binding
Endpoint: E-score
Residues (chain): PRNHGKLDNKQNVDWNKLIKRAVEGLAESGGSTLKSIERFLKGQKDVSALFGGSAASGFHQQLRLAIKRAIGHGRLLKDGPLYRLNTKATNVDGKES
CGTGGGCA: -0.052
GTGAAACA: 0.0542
AAGTTCAG: 0.0366
AATAGAAC: 0.0251
CGTCGATC: 0.0706
AAGTATTG: -0.15
ATTGTTAG: -0.0651
GCATCACA: 0.117
GATGCAGC: -0.053
AGGGGCGA: -0.05
ATTAATGA: 0.0969
GGTTAGCA: -0.037
CACTTGGA: 0.0427
TAACTCAA: 0.0434
ATCGGGGG: -0.0488
ACGTCACC: -0.171
CCACCCCC: -0.128
AAGCCTGT: -0.0513
ATATACCG: 0.0789

Further values, each from its own experiment
PhoQ, residues 284 288 289 292 302 303 SASVAL  fold induction (PhoP, residues 12 14 15 18 19 LHSVQ (Escherichia coli, UniProt P23836); Sort-seq, refers to: YFP reporter; E. coli; PhoQ-PhoP variant library, added: 10 µM Mg2+; reference: high Mg2+ state, higher = stronger signaling): 0.702

Some of these lines once more (set 3):
K58E: 12%
P50M: 2.74%
L166V: 5.56%
R98E: 1.43%
E127D: 38.4%
R98H: 5.07%
S171M: 31.1%
T39D: 5.5%
R113M: 25.3%
R99M: 92.8%
